Experimental data gathered from unrelated publications.
Each line is one published result; not all experiments were run side by side. Numbers after ± are the reported error.

| Compound | technique | sample | pH | temperature | notes | logP |
| --- | --- | --- | --- | --- | --- | --- |
| Cn1[c]([Ir-3]234([NH3+])[n]5c6ccc5C(c5c(F)c(F)c(F)c(F)c5F)=C5C=CC(=[N+]52)C(c2c(F)c(F)c(F)c(F)c2F)=c2ccc([n]23)=C(c2c(F)c(F)c(F)c(F)c2F)C2=[N+]4C(=C6c3c(F)c(F)c(F)c(F)c3F)C=C2)[n+](C)c2ccccc21.F[P-](F)(F)(F)(F)F | ICP-MS | n-octanol/saline | – | – | – | 2.67 |
| COc1ccc(C=NCCCN(C)CCN(C)CCCN=Cc2ccc(OC)cc2O)c(O)c1 | – | 1-octanol/saline | pH 7.4 | – | 67Ga complex | 1.92 ± 0.01 |
| O=C([O-])CN1CCNCCNCCN(C(C(=O)[O-])c2ccc(C(=O)O)cc2)CC1.[Mn+2] (stereo not drawn) | UPLC retention time | – | – | – | – | 0.58 |
| CC[P+](c1cc(C)cc(C)c1)(c1cc(C)cc(C)c1)c1cc(C)cc(C)c1 | shake flask, HPLC | 1-octanol/water | – | – | – | 0.08 ± 0.02 |
| O=C([O-])CN1CCN(CC(=O)[O-])CCN(CC(=O)NCCc2ccc3c(c2)C2C=CCC2C(c2cc4c(cc2Br)OCO4)N3)CCN(CC(=O)[O-])CC1.[111In+3] (stereo not drawn) | – | octanol/water | – | – | In(III) complex | 4.8 ± 0.3 |
| C#CCN(C(=O)OCc1ccc(F)cc1)[c-]1cccc1.[Fe+2].c1cc[cH-]c1 | RP-TLC | MOPS/acetonitrile | pH 7.4 | – | – | 4.72 ± 0.15 |
| CC[P+](CC)(CC)[Au-][S+](C[C@H]1O[C@H](O[C@H]2O[C@H](COC(C)=O)[C@@H](OC(C)=O)[C@H](OC(C)=O)[C@H]2OC(C)=O)[C@H](OC(C)=O)[C@@H](OC(C)=O)[C@@H]1OC(C)=O)[Au-][P+](CC)(CC)CC.[Cl-] | – | n-octanol/water | – | – | – | -0.28 |
| CC1=C2[O][Ru-]([Cl])[O+]=C2C=CN1CCCN1C=CC2=[O+][Ru-]([Cl])[O]C2=C1C.Cc1ccc(C(C)C)cc1.Cc1ccc(C(C)C)cc1 | shake flask, UV-vis | n-octanol/water | – | – | aqua complex | -1.4 |
| CCCCC[P+](c1ccc(C)cc1)(c1ccc(C)cc1)c1ccc(C)cc1 | shake flask, HPLC | 1-octanol/water | – | – | – | 0.26 ± 0.02 |
| Cc1c(C)c(C)[c-](C)c1C.O=C1c2cccc[n+]2[Ir]([Cl])[N]1CCCCCCCCCC[P+](c1ccccc1)(c1ccccc1)c1ccccc1.[Br-] | shake-flask | octanol/PBS | – | – | – | 0.94 ± 0.12 |
| C#CCN(C(=O)OCc1ccc(C(=O)N(C)C)cc1)[c-]1cccc1.[Fe+2].c1cc[cH-]c1 | RP-TLC | MOPS/acetonitrile | pH 7.4 | – | – | 3.96 ± 0.15 |
| COCCOCCOCCOCCOCCOCCOCCOCCNC(=O)CCc1ccc(N(c2ccc(CCC(=O)NCCOCCOCCOCCOCCOCCOCCOCCOC)cc2)c2ccc(-c3c4c(c(-c5ccc(N(c6ccc(CCC(=O)NCCOCCOCCOCCOCCOCCOCCOCCOC)cc6)c6ccc(CCC(=O)NCCOCCOCCOCCOCCOCCOCCOCCOC)cc6)cc5)c5nsnc35)N=S=N4)cc2)cc1 | shake flask | n-octanol/water | – | – | – | -0.64 |
| CN1C(=O)[C@@H](Cc2ccc(O)c(I)c2)NC(=O)CNC(=O)[C@H](Cc2ccc3ccccc3c2)NC(=O)[C@H](CCCNC(=N)N)NC(=O)[C@H]1CCCNC(=O)c1ccc(CNC(=O)CN2CCN(CC(=O)O)CCN(CC(=O)O)CCN(CC(=O)O)CC2)cc1 [lutetium-177 labelled] | shake-flask method | – | – | – | – | -1.76 |
| CN[P+](c1ccccc1)(c1ccccc1)c1ccccc1 | HPLC | octanol/PBS | – | – | – | 0.527 |
| CCOC(=O)c1[nH]c(C)c(/C=C/c2c(I)c(C)c3n2[B-](F)(F)[N+]2=C(C)C(I)=C(C)C2=C3c2cc(OC)cc(OC)c2)c1C | – | octanol/HEPES buffer | pH 7.4 | room temperature | – | 1.1 |
